Published values of several laboratories.
A part holds a random share of what one study measured.
UniProt O75914, sequence (whole entry, looked up): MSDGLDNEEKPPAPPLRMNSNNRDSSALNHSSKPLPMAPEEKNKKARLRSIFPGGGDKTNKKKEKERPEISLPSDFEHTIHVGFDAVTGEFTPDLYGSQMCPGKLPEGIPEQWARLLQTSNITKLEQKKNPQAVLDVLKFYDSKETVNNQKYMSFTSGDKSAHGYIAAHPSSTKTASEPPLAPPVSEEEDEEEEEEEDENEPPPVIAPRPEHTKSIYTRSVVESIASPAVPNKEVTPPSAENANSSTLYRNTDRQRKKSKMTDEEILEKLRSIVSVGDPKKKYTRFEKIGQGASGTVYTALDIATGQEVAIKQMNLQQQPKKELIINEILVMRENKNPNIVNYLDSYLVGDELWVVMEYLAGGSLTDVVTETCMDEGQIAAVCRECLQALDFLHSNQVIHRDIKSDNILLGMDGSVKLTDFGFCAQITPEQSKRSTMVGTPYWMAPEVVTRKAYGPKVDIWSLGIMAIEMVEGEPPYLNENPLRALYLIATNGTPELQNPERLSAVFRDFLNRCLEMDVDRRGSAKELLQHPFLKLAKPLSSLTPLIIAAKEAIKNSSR
UniProt Q15569, sequence (whole entry, looked up): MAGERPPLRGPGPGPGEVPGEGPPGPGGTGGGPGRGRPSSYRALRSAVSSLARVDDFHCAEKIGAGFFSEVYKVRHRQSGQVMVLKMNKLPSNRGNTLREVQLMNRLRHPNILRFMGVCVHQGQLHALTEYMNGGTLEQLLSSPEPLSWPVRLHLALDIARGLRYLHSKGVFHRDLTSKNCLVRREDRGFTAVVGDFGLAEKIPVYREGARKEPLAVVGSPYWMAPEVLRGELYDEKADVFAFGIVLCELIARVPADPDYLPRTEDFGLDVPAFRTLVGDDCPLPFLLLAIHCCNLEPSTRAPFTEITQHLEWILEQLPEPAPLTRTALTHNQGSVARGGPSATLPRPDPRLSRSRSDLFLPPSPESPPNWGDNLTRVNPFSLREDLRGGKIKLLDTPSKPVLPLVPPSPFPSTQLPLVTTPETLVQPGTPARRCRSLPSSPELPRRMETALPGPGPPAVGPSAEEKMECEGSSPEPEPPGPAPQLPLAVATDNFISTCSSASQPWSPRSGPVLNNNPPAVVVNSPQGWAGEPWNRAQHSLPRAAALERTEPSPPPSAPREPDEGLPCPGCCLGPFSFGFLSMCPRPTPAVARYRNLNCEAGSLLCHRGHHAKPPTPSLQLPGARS
UniProt P42338, sequence (whole entry, looked up): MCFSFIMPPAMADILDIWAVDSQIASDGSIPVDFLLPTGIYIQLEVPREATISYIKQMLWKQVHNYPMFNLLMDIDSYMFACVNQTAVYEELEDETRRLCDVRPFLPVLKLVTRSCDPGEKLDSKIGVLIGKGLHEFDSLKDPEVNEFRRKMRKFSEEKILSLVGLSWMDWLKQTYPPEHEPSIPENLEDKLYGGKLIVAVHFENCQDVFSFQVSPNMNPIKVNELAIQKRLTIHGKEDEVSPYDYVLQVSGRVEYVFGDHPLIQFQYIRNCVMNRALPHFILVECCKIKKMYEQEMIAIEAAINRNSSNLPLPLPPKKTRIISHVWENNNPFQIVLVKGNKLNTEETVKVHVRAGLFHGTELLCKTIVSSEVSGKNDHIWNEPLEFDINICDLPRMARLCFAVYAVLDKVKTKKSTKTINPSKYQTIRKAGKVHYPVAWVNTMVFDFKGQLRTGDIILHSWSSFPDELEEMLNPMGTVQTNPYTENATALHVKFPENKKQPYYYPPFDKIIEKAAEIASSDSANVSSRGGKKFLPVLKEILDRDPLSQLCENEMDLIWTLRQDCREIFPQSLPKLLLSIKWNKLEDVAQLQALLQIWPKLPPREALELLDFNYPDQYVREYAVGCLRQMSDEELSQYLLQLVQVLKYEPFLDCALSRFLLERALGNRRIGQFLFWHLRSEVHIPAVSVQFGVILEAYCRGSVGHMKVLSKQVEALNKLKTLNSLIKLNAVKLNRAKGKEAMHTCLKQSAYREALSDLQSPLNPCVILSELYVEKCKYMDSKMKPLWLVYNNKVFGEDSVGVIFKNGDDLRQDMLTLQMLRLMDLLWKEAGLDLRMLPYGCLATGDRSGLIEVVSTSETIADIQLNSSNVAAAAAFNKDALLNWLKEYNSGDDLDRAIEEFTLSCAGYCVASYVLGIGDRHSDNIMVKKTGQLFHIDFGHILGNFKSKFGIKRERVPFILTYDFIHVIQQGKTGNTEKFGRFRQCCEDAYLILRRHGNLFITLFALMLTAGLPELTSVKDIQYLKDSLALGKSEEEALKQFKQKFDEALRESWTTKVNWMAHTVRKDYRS
UniProt Q13546, sequence (whole entry, looked up): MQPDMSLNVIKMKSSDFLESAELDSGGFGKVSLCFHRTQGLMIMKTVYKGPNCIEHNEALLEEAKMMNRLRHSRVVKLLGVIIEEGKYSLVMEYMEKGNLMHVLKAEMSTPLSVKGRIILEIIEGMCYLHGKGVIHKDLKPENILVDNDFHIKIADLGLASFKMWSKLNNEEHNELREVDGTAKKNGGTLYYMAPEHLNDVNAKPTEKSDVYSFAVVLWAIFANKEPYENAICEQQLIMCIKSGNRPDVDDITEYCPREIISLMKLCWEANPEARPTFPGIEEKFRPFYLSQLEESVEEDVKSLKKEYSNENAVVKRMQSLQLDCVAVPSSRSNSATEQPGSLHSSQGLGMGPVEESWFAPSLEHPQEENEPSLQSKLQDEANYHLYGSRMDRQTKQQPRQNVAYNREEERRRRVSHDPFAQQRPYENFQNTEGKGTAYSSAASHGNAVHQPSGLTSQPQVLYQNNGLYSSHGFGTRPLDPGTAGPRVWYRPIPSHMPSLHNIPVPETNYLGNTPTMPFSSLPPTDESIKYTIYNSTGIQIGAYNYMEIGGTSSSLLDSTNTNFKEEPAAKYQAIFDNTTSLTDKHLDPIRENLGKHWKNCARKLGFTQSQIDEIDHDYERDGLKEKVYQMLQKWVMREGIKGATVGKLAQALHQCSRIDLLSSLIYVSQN

Study 1
Target: TAR DNA-binding protein 43, full length, His tag (TARDBP, Homo sapiens, UniProt Q13148, residues 1-414)
Method: RNA Bind-n-Seq
Form: RNA
Sample: in vitro
Tested at: 20 nM
Setting: 6-mer, flanks averaged, single round
Added: 150 mM KCl
Relative to: input library
Reading: higher = stronger binding
| Oligonucleotide | 6-mer enrichment (R) |
| --- | --- |
| AGUCAU | 0.588 |
| CUUCGA | 0.563 |
| AUGGUU | 0.764 |
| UAUUGA | 0.645 |
| GGUUUU | 0.821 |
| UCGUAG | 0.749 |
| AUCACA | 0.601 |
| UCUGUA | 0.647 |

Study 2
Target: Serine/threonine-protein kinase D1 (PRKD1, Homo sapiens, UniProt Q15139)
UniProt Q15139, sequence (whole entry, looked up): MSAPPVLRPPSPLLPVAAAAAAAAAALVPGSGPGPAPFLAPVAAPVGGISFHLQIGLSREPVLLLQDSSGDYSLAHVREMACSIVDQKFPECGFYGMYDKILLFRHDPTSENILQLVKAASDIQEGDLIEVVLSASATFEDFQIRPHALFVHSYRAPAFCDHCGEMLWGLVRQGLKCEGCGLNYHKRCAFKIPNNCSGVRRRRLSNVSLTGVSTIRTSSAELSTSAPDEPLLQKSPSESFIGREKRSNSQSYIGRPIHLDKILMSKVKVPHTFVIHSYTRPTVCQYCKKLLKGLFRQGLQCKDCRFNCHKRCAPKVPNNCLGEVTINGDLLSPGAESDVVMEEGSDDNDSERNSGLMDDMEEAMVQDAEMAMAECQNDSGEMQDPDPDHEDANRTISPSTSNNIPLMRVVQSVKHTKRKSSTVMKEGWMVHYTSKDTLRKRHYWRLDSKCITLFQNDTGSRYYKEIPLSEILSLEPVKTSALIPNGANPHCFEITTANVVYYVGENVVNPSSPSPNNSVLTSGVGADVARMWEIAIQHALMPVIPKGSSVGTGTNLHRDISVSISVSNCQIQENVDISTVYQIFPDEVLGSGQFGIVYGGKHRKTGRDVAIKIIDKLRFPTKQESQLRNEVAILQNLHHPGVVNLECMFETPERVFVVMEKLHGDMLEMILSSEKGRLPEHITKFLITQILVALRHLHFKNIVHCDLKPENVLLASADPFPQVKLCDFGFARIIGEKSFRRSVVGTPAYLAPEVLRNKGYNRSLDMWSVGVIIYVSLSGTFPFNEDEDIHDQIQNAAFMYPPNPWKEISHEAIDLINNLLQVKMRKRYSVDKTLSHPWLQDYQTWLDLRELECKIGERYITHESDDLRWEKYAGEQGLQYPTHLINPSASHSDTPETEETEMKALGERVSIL
Observed: enzyme activity
Action: inhibitor
Tested at: 0.5 µM
Relative to: control
| Compound | remaining activity [%] |
| --- | --- |
| c1ccc(-c2n[nH]c3c2oc2ccccc23)cc1 | 79.2 |
| O=C1NC(=O)/C(=C/c2ccc3c(c2)OC(F)(F)O3)S1 | 94.8 |
| O=C1Nc2ccccc2/C1=C\c1c(Cl)[nH]c2ccccc12 | 89.5 |
| CC(C)n1cnc2c(Nc3cccc(Cl)c3)nc(NCCO)nc21 | 99.2 |
| COc1cc2c(Nc3ccc(Br)cc3F)ncnc2cc1OCC1CCN(C)CC1 | 99.3 |
| CCCCc1c(-c2ccc(OC)cc2)[nH]c2nccnc12 | 92.9 |
| Cc1ccc(S(=O)(=O)/C=C/C#N)cc1 | 93.8 |
| O=C1NC(=O)c2c1c1c3ccccc3[nH]c1c1[nH]c3cc(Br)ccc3c21 | 51.9 |
| O=C1NC(=O)c2c1c1c3ccccc3[nH]c1n1cncc21 | 61.4 |
| CCN(CC)CCCCN1c2ccccc2Oc2ccc(Cl)cc21 | 101 |
| NC(=O)c1ccc(-c2nc(-c3ccc4c(c3)OCCO4)c(-c3ccccn3)[nH]2)cc1 | 96.3 |
| CCCCc1c(-c2ccc(O)cc2)[nH]c2nccnc12 | 77.7 |
| CC(C)N(CCC(=O)c1ccc2ccccc2c1)Cc1ccccc1 | 98 |
| O=Nc1c(-c2c(O)[nH]c3ccccc23)[nH]c2ccccc12 | 85 |
| O=C(c1cc2cc(O)ccc2[nH]1)c1cc2cc(O)ccc2[nH]1 | 58.5 |
| CCCNC(=O)Nc1ccc(Oc2ncnc3cc(OC)c(OC)cc23)cc1Cl | 92.9 |
| O=c1c(-c2ccc(F)cc2)c(-c2ccncc2)[nH]n1-c1ccc(Cl)cc1 | 84.7 |
| Clc1ccc(Nc2nnc(Cc3ccncc3)c3ccccc23)cc1 | 101 |

Study 3
Compound: CS(=O)(=O)N1CCCC(NC(=O)[C@H](CCC2CCCCC2)NC(=O)c2ccc(CNc3ncnc4c3nnn4-c3ccccc3)cc2)C1 (stereo partly shown)
Observed: cell-free assay
Method: competition with immobilised ligand
Tested at: 0.1 µM
| target | remaining binding [%] |
| --- | --- |
| Receptor-interacting serine/threonine-protein kinase 1 (RIPK1, Homo sapiens, UniProt Q13546) | 94 |
| Serine/threonine-protein kinase PAK 3 (PAK3, Homo sapiens, UniProt O75914) | 100 |
| Phosphatidylinositol 4,5-bisphosphate 3-kinase catalytic subunit beta isoform (PIK3CB, Homo sapiens, UniProt P42338) | 81 |
| Dual specificity testis-specific protein kinase 1 (TESK1, Homo sapiens, UniProt Q15569) | 100 |

Study 4
Target: Histone acetyltransferase KAT6A, winged helix 2, GST fusion (KAT6A, Homo sapiens, UniProt Q92794, residues 85-181)
Method: protein binding microarray
Form: double-stranded DNA, one strand shown
Sample: in vitro
Tested at: not given
Setting: 8-mer, flanks averaged, mean of 2 arrays, mostly near background
Relative to: not given
Reading: higher = stronger binding
Residues (chain): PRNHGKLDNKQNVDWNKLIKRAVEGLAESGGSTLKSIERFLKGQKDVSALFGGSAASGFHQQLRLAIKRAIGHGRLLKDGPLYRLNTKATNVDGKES
| Oligonucleotide | E-score |
| --- | --- |
| AAGGTACG | -0.159 |
| ACCCTCAG | 0.0459 |
| CCAGGGCA | 0.125 |
| TAGTAAAA | 0.1 |
| AGCCTTGA | -0.027 |
| AGCACGAA | 0.0565 |
| GTATCCCA | 0.0382 |
| GAGGGGAA | 0.195 |

Mixed results
Target: SMN1, full length (human, UniProt Q16637, residues 1-294)
UniProt Q16637, sequence (whole entry, looked up): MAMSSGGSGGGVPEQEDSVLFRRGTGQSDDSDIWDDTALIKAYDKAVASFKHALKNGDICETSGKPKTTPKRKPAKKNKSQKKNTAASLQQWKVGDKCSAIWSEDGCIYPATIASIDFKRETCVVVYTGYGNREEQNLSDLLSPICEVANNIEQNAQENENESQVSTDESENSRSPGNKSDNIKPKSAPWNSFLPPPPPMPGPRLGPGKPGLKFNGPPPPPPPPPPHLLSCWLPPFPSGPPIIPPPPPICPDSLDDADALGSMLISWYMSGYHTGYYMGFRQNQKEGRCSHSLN
Method: nitrocellulose filter binding
Form: RNA
Sample: in vitro
Tested at: 100 nM
Setting: whole RNA, constant flanks, single concentration, ends assumed
Relative to: round 9 selected pool
Reading: higher = stronger binding
| Oligonucleotide | relative RNA binding |
| --- | --- |
| GGGCUCACCACGCACGUGCGCUGGUUUUAAUUUUUGCGCGCCUCACCACGGCAAGCU | 69 % of pool |
| GGGCUCACCACGCACGUGGGCGUGGCUUUUAUUUCGGUGACCUCACCACGGCAAGCU | 7.5 % of pool |

Excerpt of the above (study 4):
| Oligonucleotide | E-score |
| --- | --- |
| CCAGGGCA | 0.125 |
| TAGTAAAA | 0.1 |
| AGCCTTGA | -0.027 |
| AGCACGAA | 0.0565 |
| GTATCCCA | 0.0382 |
| GAGGGGAA | 0.195 |
